Experimental data from different studies.
Compare with care: the assays were run in different laboratories. Numbers after ± are the reported error.
UniProt Q15835, sequence (whole entry, looked up): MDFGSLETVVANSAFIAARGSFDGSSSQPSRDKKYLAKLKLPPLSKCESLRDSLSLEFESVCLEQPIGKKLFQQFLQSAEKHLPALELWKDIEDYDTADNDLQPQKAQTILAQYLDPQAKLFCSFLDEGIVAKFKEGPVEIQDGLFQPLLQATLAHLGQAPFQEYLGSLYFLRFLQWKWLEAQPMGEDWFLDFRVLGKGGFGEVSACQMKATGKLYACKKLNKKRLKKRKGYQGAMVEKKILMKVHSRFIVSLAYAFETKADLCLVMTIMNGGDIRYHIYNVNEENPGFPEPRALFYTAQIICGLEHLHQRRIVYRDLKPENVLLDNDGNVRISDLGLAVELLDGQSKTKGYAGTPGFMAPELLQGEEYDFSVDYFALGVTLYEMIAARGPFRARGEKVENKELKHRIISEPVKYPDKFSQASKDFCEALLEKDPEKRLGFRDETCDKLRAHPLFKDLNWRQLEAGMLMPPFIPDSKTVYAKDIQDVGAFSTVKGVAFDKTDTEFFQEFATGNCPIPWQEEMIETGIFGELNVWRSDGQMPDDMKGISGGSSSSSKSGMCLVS
UniProt P16885, sequence (whole entry, looked up): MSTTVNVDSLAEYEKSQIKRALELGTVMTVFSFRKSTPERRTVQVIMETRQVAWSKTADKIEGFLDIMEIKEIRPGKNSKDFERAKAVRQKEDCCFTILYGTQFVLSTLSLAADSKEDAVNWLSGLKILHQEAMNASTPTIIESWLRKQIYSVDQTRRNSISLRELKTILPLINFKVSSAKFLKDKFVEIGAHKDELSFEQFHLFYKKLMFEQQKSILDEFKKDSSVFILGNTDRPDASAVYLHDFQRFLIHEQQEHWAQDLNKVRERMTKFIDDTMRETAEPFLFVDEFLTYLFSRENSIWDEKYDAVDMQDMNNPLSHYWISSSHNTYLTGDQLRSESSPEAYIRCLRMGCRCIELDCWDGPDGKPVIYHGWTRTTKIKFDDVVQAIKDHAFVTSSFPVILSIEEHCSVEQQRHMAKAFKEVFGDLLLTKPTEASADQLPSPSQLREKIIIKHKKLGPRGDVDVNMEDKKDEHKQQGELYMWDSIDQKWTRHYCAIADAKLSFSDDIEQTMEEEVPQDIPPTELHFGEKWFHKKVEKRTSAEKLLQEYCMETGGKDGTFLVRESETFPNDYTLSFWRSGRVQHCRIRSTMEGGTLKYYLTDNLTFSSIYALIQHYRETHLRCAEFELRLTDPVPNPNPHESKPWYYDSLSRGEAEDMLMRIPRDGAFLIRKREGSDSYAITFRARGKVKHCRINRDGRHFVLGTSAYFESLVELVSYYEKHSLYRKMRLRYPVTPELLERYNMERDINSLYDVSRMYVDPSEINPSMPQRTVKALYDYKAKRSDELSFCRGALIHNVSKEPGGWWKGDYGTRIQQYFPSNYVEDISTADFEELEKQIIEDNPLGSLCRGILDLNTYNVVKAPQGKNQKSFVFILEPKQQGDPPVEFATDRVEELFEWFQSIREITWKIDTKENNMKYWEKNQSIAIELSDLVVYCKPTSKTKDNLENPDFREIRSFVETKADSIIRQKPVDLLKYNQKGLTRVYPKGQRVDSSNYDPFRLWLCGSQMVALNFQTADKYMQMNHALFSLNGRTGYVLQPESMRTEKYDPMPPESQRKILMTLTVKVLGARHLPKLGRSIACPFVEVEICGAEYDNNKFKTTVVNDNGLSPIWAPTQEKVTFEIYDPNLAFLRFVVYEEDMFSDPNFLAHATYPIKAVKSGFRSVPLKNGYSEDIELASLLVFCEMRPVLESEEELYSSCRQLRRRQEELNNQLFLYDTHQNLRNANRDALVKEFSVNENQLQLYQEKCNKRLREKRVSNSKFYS
UniProt P61981, sequence (whole entry, looked up): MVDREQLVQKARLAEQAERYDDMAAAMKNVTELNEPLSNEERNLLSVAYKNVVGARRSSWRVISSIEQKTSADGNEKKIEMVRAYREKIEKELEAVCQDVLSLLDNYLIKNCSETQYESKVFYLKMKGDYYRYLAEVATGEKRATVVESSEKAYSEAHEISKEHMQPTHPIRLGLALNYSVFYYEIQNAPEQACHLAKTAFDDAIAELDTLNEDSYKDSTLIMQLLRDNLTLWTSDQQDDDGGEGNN
UniProt P41143, sequence (whole entry, unmodified, looked up): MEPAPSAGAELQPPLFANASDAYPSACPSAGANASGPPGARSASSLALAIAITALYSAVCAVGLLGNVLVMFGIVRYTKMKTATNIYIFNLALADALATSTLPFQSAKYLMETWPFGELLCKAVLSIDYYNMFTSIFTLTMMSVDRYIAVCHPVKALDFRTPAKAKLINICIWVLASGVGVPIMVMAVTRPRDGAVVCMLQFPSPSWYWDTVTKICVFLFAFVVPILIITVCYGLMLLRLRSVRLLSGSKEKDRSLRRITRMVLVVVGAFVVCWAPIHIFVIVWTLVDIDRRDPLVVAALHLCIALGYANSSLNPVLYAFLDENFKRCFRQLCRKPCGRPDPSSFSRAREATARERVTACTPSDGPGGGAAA
UniProt P0DMV8, sequence (whole entry, looked up): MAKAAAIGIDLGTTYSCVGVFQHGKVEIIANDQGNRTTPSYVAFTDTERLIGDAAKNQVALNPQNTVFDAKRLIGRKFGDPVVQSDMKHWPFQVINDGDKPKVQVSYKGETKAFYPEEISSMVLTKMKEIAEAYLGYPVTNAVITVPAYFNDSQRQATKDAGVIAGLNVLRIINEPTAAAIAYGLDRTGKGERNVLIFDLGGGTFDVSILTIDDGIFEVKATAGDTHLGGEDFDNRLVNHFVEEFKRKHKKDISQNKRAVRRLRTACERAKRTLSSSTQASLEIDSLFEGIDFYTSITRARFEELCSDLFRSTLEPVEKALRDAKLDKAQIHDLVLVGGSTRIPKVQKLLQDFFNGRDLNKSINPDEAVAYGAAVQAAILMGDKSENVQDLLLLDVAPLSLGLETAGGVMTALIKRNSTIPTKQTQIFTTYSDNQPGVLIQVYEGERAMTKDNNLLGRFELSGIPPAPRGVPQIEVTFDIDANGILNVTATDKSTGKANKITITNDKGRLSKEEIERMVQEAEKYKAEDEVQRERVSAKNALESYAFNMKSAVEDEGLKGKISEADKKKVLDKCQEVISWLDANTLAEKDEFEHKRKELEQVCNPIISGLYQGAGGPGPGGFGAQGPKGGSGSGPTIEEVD
UniProt Q8N8S7, sequence (whole entry, looked up): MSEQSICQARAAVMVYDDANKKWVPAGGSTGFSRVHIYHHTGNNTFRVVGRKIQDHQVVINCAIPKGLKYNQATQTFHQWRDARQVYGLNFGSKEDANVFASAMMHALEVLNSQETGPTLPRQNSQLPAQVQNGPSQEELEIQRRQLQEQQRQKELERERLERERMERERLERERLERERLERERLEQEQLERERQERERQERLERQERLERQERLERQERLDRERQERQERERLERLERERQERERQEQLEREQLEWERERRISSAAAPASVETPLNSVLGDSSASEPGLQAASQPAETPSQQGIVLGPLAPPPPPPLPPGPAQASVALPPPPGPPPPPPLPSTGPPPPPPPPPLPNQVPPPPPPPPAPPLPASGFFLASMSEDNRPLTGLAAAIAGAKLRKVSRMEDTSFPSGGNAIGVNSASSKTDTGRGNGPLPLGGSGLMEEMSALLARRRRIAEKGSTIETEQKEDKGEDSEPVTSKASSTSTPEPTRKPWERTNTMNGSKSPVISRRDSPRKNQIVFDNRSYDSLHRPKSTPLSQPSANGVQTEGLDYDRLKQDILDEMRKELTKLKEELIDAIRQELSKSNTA
UniProt Q9VK33, sequence (whole entry, looked up): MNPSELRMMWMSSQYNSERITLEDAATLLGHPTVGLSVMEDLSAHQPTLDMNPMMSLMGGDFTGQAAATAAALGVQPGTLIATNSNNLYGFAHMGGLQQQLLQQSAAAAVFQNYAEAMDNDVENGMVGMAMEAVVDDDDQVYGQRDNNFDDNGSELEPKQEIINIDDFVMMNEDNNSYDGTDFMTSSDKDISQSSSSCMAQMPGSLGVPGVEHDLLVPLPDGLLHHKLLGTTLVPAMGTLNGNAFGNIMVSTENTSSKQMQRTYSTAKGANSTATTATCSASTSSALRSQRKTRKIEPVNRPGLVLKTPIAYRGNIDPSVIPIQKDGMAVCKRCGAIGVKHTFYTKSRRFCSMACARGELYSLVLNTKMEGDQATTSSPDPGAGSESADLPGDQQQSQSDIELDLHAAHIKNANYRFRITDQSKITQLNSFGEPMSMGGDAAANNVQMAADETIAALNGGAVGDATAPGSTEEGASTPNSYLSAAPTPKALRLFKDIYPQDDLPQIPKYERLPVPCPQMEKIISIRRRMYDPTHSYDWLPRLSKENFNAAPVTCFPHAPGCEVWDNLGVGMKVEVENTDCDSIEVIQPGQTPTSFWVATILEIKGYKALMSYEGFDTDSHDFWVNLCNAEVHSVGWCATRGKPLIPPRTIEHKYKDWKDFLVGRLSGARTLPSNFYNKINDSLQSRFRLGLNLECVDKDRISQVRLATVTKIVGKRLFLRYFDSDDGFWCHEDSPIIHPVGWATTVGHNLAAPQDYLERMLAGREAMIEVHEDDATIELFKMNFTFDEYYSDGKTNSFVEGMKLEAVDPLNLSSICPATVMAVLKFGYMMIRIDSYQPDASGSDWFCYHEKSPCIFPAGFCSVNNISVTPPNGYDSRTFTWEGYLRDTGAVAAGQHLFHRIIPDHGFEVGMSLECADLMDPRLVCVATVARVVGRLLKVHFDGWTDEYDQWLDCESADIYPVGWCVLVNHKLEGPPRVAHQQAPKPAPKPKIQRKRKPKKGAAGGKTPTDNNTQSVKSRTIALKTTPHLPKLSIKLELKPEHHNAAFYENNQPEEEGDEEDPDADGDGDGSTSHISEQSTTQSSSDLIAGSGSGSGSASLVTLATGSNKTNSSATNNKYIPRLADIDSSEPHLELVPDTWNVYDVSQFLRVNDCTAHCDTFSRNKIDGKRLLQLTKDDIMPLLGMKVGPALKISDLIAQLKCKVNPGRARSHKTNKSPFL

The Ki of CCN(CC)C(=O)c1ccc(C(c2cccc(O)c2)N2CC(C)N(Cc3ccccc3)CC2C)cc1 (stereo not shown) is reported as 0.00067 ± 0.00011 µM (OPRD1 (Homo sapiens, UniProt P41143, W274F)).
For CC[C@H](C)[C@H](NC(=O)[C@H](CCC(=O)O)NC(=O)[C@H](CCCNC(=N)N)NC(=O)[C@H](C)NC(=O)[C@H](C)NC(=O)[C@H](CCC(N)=O)NC(=O)[C@H](CCC(=O)O)NC(=O)[C@H](CCC(=O)O)NC(C)=O)C(=O)NCC(=O)N[C@@H](C)C(=O)N[C@@H](CCC(N)=O)C(=O)N[C@@H](CC(C)C)C(=O)N[C@@H](CCCNC(=N)N)C(=O)N[C@@H](CCCNC(=N)N)C(=O)N[C@@H](CCSC)C(=O)N[C@@H](C)C(=O)N[C@@H](CC(=O)O)C(=O)N[C@@H](CC(=O)O)C(=O)N[C@@H](CC(C)C)C(=O)N[C@@H](CC(N)=O)C(=O)N[C@@H](C)C(=O)N[C@@H](CCC(N)=O)C(=O)N[C@@H](Cc1ccc(O)cc1)C(=O)N[C@@H](CCC(=O)O)C(=O)N[C@@H](CCCNC(=N)N)C(N)=O, the Kd was 0.005 ± 0.003 µM (BFL-1 ΔC human; binding, ITC).
With C=CC1CN(Cc2ccccn2)C(=O)C2CCCC1N2S(=O)(=Nc1ccccc1)c1cc(Cl)cc(Cl)c1 (stereo not shown) the Kd was greater than 40 µM (uncharacterized protein, residues 23-253 (Pseudomonas aeruginosa, UniProt Q9HYX8); binding, competitive fluorescence polarization; 30 min, protein 40 nM, added: fluorescent tracer 1 nM).
CC(C)C[C@H](NC(=O)[C@H](CCP(=O)(O)O)NC(=O)[C@@H](NC(=O)[C@@H](NC(=O)[C@H](CCCNC(=N)N)NC(=O)[C@H](CC(C)C)NC(=O)[C@H](CO)NC(=S)Nc1ccc2c(c1)C(=O)OC21c2ccc(O)cc2Oc2cc(O)ccc21)[C@@H](C)O)C(C)C)C(=O)NCC(=O)N[C@@H](C)C(=O)NCC(=O)N[C@@H](C)C(=O)N[C@@H](Cc1c[nH]c2ccccc12)C(=O)N[C@@H](CC(C)C)C(=O)N[C@H](C(=O)N1CCC[C@H]1C(=O)N[C@@H](CCCNC(=N)N)C(=O)O)C(C)C has a Kd of 17.3 µM (YWHAG (Homo sapiens, UniProt P61981); binding, fluorescence anisotropy; pH 7.5, FITC-labelled phosphopeptide titration).
CC(C)(C)C(=O)OCOP(=O)(OCOC(=O)C(C)(C)C)C1CCCN(O)C1=O (stereo not shown) gave a log LC50 of greater than -4 log M (HCT-15).
For CNCCCC[C@H](NC(=O)[C@@H](NC(=O)[C@H](CCCNC(=N)N)NC(=O)[C@H](C)N)[C@@H](C)O)C(=O)N[C@@H](CCC(N)=O)C(=O)N[C@H](C(=O)N[C@@H](C)C(=O)N[C@@H](CCCNC(=N)N)C(=O)N[C@@H](CCCCN)C(=O)N[C@@H](CO)C(=O)N[C@H](C(=O)NCC(=O)NCC(=O)N[C@@H](CCCCN)C(=O)N[C@@H](C)C(N)=O)[C@@H](C)O)[C@@H](C)O, the Kd was 4.3 µM (Polycomb protein Sfmbt (Sfmbt, Drosophila melanogaster, UniProt Q9VK33); fluorescence polarization; pH 8.0).
The tissue uptake of CC[C@H](C)[C@H](NC(=O)[C@H](CO)NC(=O)[C@H](Cc1ccc(O)cc1)NC(=O)[C@H](Cc1ccc(O)cc1)NC(=O)[C@H](CC(N)=O)NC(=O)CNC(=O)[C@H](CO)NC(=O)[C@H](Cc1ccc(O)cc1)NC(=O)[C@H](CO)NC(=O)[C@H](CO)NC(=O)[C@H](CC(N)=O)NC(=O)COCCOCCNC(=O)CN1CCN(CC(=O)O)CCN(CC(=O)O)CCN(CC(=O)O)CC1)C(=O)N[C@@H](CC(C)C)C(N)=O [copper-64 labelled] is reported as 12.2 %ID/mL (dynamic PET; KPC mouse Ptf1a-CreER tdTomato, pancreas; intravenous, 4.6 MBq/mouse, 6.5 min, 84 d after tamoxifen).
CSCC[C@H](NC(=O)CNC(=O)[C@H](CCCNC(=N)N)NC(=O)[C@H](C)NC(=O)[C@@H](NC(=O)[C@H](CCC(N)=O)NC(=O)[C@H](Cc1ccc(OP(=O)(O)O)cc1)NC(=O)[C@H](C)NC(=O)[C@H](CS)NC(=O)[C@H](CO)NC(=O)[C@@H](NC(=O)[C@H](CC(C)C)NC(=O)[C@H](CC(=O)O)NC(=O)[C@H](CCCCN)NC(=O)[C@H](CO)NC(=O)[C@H](CO)NC(=O)c1ccc2c(c1)C(=O)OC21c2ccc(N(C)C)cc2Oc2cc(N(C)C)ccc21)C(C)C)C(C)C)C(=O)N[C@@H](CCC(=O)O)C(=O)N[C@@H](CC(=O)O)C(=O)O has a Kd of 1.42 µM (1-phosphatidylinositol 4,5-bisphosphate phosphodiesterase gamma-2, SH2 domain (PLCG2, Homo sapiens, UniProt P16885); binding).
The relative abundance of COc1ccccc1-c1n[nH]c2nc(NC3CCN(C(=O)Cc4ccc(F)cc4F)CC3)ncc12 is reported as 1.21 (bead binding, competition bead pull-down, measured: LINJ.29.0890; Leishmania donovani extract; 10 µM; relative to: vehicle).
For CC(=O)N[C@@H](CO)C(=O)N[C@@H](Cc1ccccc1)C(=O)N[C@@H](CCC(=O)O)C(=O)N[C@@H](Cc1ccccc1)C(=O)N1CC[C@@H]2C=C[C@H]3CC[C@@H](C(=O)N4CCC[C@H]4C(=O)N4CCC[C@H]4C(=O)N[C@H](C(=O)N[C@@H](CCC(=O)O)C(=O)N[C@@H](CC(=O)O)C(=O)N[C@@H](CCC(=O)O)C(=O)N[C@@H](CC(C)C)C(N)=O)[C@@H](C)O)N3C(=O)[C@H]21, the Kd was 8 µM (Protein enabled homolog (ENAH, UniProt Q8N8S7); binding, fluorescence).
The Kd of C(#C[P+](c1ccccc1)(c1ccccc1)c1ccccc1)c1ccccc1 is reported as roughly 28.4 µM (Heat shock 70 kDa protein 1A, substrate-bound (HSPA1A, Homo sapiens, UniProt P0DMV8); ITC; ADP-bound, NRLLLTG pre-incubated).
O=C1NC2(CC2)COc2ncc(F)cc2[C@H]2COCCN2c2ccn3ncc1c3n2 — result for “serum total bilirubin”: 1.5 ± 0.6 µmol/L (Sprague-Dawley rat, male, serum; oral, 2.5 mg/kg/day, end of recovery, 4-week subacute toxicity).
For O=C(N[C@@H]1c2ccccc2C[C@H]1N1CCCC1)c1ccc(-c2ccnc3[nH]ccc23)nc1, the Kd was 0.71 µM (GRK1 (Homo sapiens, UniProt Q15835); binding, competition with immobilised ligand).
The Kd of CC[C@H](C)[C@H](NC(=O)[C@H](CCCCNC(=O)CN(CCNC(=O)CN(CCNC(=O)CN(CCNC(=O)CN(CCNC(=O)[C@H](CCCNC(=N)N)NC(C)=O)C(=O)Cn1ccc(N)nc1=O)C(=O)Cn1cnc2c(=O)[nH]c(N)nc21)C(=O)Cn1cnc2c(=O)[nH]c(N)nc21)C(=O)Cn1ccc(N)nc1=O)NC(=O)[C@H](C)NC(=O)[C@H](CCCNC(=N)N)NC(=O)[C@H](CCCCN)NC(=O)[C@H](CCC(N)=O)NC(=O)[C@H](CCC(N)=O)NC(=O)[C@H](CC(N)=O)NC(=O)[C@@H](NC(=O)[C@H](CC(C)C)NC(=O)[C@H](CC(N)=O)NC(=O)[C@@H]1CCCN1C(=O)[C@H](CC(=O)O)NC(=O)[C@H](CC(C)C)NC(=O)[C@H](C)NC(=O)[C@H](CS)NC(=O)[C@H](CCCC(=O)NCCN(CC(=O)NCCN(CC(=O)NCCN(CC(=O)NCCN(CC(=O)N[C@@H](CCCNC(=N)N)C(N)=O)C(=O)Cn1cnc2c(=O)[nH]c(N)nc21)C(=O)Cn1ccc(N)nc1=O)C(=O)Cn1ccc(N)nc1=O)C(=O)Cn1cnc2c(=O)[nH]c(N)nc21)NC(=O)[C@H](Cc1c[nH]c2ccccc12)NC(=O)[C@H](Cc1ccc(O)cc1)NC(=O)[C@H](CCCNC(=N)N)NC(=O)[C@H](CC(N)=O)NC(=O)[C@H](CCCNC(=N)N)NC(=O)[C@H](CCSC)NC(=O)[C@H](CCC(=O)O)NC(=O)[C@H](CCCCN)NC(=O)[C@H](CO)NC(=O)[C@H](Cc1ccccc1)NC(C)=O)[C@@H](C)O)C(=O)N[C@@H](CCCNC(=N)N)C(=O)N[C@@H](CO)C(=O)N[C@H](C(=O)N[C@@H](Cc1ccc(O)cc1)C(=O)N[C@@H](CCC(=O)O)C(=O)N[C@@H](CCC(=O)O)C(=O)NCC(=O)N[C@@H](CCC(=O)O)C(N)=O)[C@@H](C)CC is reported as 0.0033 µM (ERBB2 (Homo sapiens, UniProt P04626); binding, SPR).
CC1(O)c2ccccc2-c2ccccc2C1(C)O (stereo not shown) gave a Kd of 1400 µM (Beta-lactamase (ampC, Escherichia coli K-12, UniProt P00811)).
With CC(C)C[C@H](NC(=O)CNC(=O)[C@@H](NC(=O)[C@@H](NC(=O)CNC(=O)[C@H](CCCNC(=N)N)NC(=O)[C@H](CCC(N)=O)NC(=O)CN)C(C)C)C(C)C)C(=O)N1C[C@H](O)C[C@H]1C(=O)NCC(=O)N[C@@H](CCC(N)=O)C(=O)N[C@@H](CCCNC(=N)N)C(=O)NCC(=O)N[C@@H](CCC(=O)O)C(=O)N[C@@H](CCCNC(=N)N)C(=O)NCC(=O)N[C@@H](Cc1ccccc1)C(=O)N1C[C@H](O)C[C@H]1C(=O)NCC(=O)N[C@@H](CC(C)C)C(=O)N1C[C@H](O)C[C@H]1C(=O)NCC(=O)N1CCC[C@H]1C(=O)N[C@@H](CO)C(=O)NCC(=O)N[C@@H](CCC(=O)O)C(=O)N1C[C@H](O)C[C@H]1C(=O)NCC(=O)N[C@@H](CCCCN)C(=O)N[C@@H](CCC(N)=O)C(=O)NCC(=O)N1CCC[C@H]1C(=O)N[C@@H](CO)C(=O)NCC(=O)N[C@@H](C)C(=O)N[C@@H](CO)C(=O)NCC(=O)N[C@@H](CCC(=O)O)C(=O)N[C@@H](CCCNC(=N)N)C(=O)O the Kd was 38 µM (Fibronectin (FN1, Homo sapiens, UniProt P02751); binding, ITC; pH 7.2).

For quick reference, copied from above:
The Ki of CCN(CC)C(=O)c1ccc(C(c2cccc(O)c2)N2CC(C)N(Cc3ccccc3)CC2C)cc1 (stereo not shown) is reported as 0.00067 ± 0.00011 µM (OPRD1 (Homo sapiens, UniProt P41143, W274F)).
The relative abundance of COc1ccccc1-c1n[nH]c2nc(NC3CCN(C(=O)Cc4ccc(F)cc4F)CC3)ncc12 is reported as 1.21 (bead binding, competition bead pull-down, measured: LINJ.29.0890; Leishmania donovani extract; 10 µM; relative to: vehicle).
